Published values gathered from unrelated publications.
Numbered parts are unrelated; each lists some results of a single study. Changes are numbered by the printed parent chain.

Set 1 — technique: protein binding microarray; molecule type: double-stranded DNA, one strand shown; sample: in vitro; concentration: not given; relative to: not given; reading: higher = stronger binding
Target: Histone acetyltransferase KAT6A, winged helix 2, GST fusion (KAT6A, Homo sapiens, UniProt Q92794, residues 85-181)
Setting: 8-mer, flanks averaged, mean of 2 arrays, mostly near background
Construct (chain): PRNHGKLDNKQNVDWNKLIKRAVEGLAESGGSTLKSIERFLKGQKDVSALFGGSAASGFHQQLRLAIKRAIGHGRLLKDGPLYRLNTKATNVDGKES
Strand	E-score
CCAATTAA	-0.0225
AAACCCGG	0.169
AAGAGTAT	-0.165
ACTCCCTG	-0.0165
CGTTTTAA	0.106
CCGGTCCC	0.237
AGGCAGCA	0.0746
ATTGGTGA	-0.0312
CGTAAGTC	-0.207
CAGCAGTA	0.0401
GGGCGTAC	-0.001
CGCGAGAG	0.1
ATTACCAA	-0.0942
AGATCGTC	-0.16
TCGGAAGA	-0.0231
CCGTAAAA	0.122
TAGGACTA	-0.118
AGCTTCAC	-0.0646
GTCGTGTA	-0.148
ACGATTGA	-0.155
AATAGCTA	0.011
CTCTGCAA	0.0175

Set 2 — target: UBE2L6 UBC core domain (UniProt O14933); technique: yeast two-hybrid; sample: yeast; setting: mostly zero background; relative to: not given; reading: higher = stronger interaction
B1: PHF7 RING domain (UniProt Q9BWX1); chain IQHGHVGEESCILCCEDLSQQSVENIQSPCCSQAIYHRKCIQKYAHTSAKHFFKCPQCNNRKEFPQEML
B2: RNF4 RING domain (UniProt P78317); chain TGLRPSGTVSCPICMDGYSEIVQNGRLIVSTECGHVFCSQCLRDSLKNANTCPTCRKKINHKRYHP
B3: TRIM35 RING domain (UniProt Q9UPQ4); chain PSRSFKEELLCAVCYDPFRDAVTLRCGHNFCRGCVSRCWEVQVSPTCPVCKDRASPADLRT
B4: MSL2 RING domain (UniProt Q9HCI7); chain LLPYFRQSLSCCVCGHLLQDPIAPTNSTCQHYVCKTCKGKKMMMKPSCSWCKDYEQFEENKQ
B5: RNF43 RING domain (UniProt Q68DV7); chain SGSSCSSAPVCAICLEEFSEGQELRVISCLHEFHRNCVDPWLHQHRTCPLCMFNITEGDSFS
B6: TRIM38 RING domain (UniProt O00635); chain STKKMMEEATCSICLSLMTNPVSINCGHSYCHLCITDFFKNPSQKQLRQETFCCPQCRAPFHMDSLRP
Construct (chain): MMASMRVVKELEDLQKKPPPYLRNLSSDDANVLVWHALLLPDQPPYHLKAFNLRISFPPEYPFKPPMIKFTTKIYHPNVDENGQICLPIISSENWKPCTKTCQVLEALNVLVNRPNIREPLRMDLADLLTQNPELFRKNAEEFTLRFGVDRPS
Molecule	lacZ reporter activity
B1 (PHF7 RING domain)	0
B2 (RNF4 RING domain)	2110
B3 (TRIM35 RING domain)	0
B4 (MSL2 RING domain)	0
B5 (RNF43 RING domain)	0
B6 (TRIM38 RING domain)	0
ISNDSETLEECMVCSDMKRDTLFGPCGHIATCSLCSPRVKKCLICKEQVQSRTKIE (MIB1 RING domain (UniProt Q86YT6))	0
FLKKLEQSFMCVCCQELVYQPVTTECFHNVCKDCLQRSFKAQVFSCPACRHDLGQNYIMI (UHRF2 RING domain (UniProt Q96PU4))	0

Set 3 — technique: DHFR PCA, deep sequencing; sample: yeast; with: (+)-ABA 0.032 µM; relative to: wild-type fitted maximum; reading: higher = stronger binding
Target: ABI1, truncated, D143A, DHFR fusion (Arabidopsis thaliana)
Setting: methotrexate growth selection, single substitutions
Starting sequence: PYL1, truncated, DHFR fusion (Arabidopsis thaliana); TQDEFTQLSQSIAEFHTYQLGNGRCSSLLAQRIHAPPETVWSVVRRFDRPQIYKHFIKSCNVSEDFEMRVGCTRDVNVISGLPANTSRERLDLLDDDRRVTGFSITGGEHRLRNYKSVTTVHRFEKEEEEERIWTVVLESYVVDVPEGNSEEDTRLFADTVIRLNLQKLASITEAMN
Substitution	relative binding score [%]
T119N	4.76
H122A	5.02
E4R	5.17
E127T	37
Y18T	-2.97
N149H	31.2
I133A	42.5
S150C	14.6
L93F	11
P146A	29.4
H16N	-3.59
T39V	49
E151H	17.2
F56P	2.26
D96Y	7.52
K126M	59.1
V136Q	-5.73
F124E	4.39
S104M	1.63
L20N	17
H110T	50.7
E139P	3.02

Set 4 — target: CCNE1, cyclin fold, Cln2 fusion (human); technique: yeast growth competition, sequencing; sample: yeast; setting: strong parent motif; relative to: not given; reading: higher = stronger binding
Starting sequence: CDKN1B docking peptide (human); PSACRNLFGPVDH
Substitution	normalised enrichment score
PSACRNLFGPKDH [V11K]	2.66
PSACRNLFSPVDH [G9S]	1.17
PAACRNLFGPVDH [S2A]	2.72
PSACRNLFGKVDH [P10K]	2.88
PSAARNLFGPVDH [C4A]	1.47
PSCCRNLFGPVDH [A3C]	3.96
PSACRNLFGPVDW [H13W]	4.3
PSACRLLFGPVDH [N6L]	2.4
PSACRNLFGPRDH [V11R]	2.12
PSACRNLFGPVTH [D12T]	2.77
GSACRNLFGPVDH [P1G]	3.13
PSACANAFGPVDH [R5A L7A]	-0.193
QSACRNLFGPVDH [P1Q]	3.75
PSACWNLFGPVDH [R5W]	0.292
PSACRNLMGPVDH [F8M]	0.176

Set 5 — technique: universal PBM; molecule type: double-stranded DNA, one strand shown; sample: in vitro; concentration: 600 nM; reading: higher = stronger binding
Target: Sal-like protein 4, full length isoform A (SALL4, Homo sapiens, UniProt Q9UJQ4, residues 1-1053)
UniProt Q9UJQ4, sequence (whole entry, looked up): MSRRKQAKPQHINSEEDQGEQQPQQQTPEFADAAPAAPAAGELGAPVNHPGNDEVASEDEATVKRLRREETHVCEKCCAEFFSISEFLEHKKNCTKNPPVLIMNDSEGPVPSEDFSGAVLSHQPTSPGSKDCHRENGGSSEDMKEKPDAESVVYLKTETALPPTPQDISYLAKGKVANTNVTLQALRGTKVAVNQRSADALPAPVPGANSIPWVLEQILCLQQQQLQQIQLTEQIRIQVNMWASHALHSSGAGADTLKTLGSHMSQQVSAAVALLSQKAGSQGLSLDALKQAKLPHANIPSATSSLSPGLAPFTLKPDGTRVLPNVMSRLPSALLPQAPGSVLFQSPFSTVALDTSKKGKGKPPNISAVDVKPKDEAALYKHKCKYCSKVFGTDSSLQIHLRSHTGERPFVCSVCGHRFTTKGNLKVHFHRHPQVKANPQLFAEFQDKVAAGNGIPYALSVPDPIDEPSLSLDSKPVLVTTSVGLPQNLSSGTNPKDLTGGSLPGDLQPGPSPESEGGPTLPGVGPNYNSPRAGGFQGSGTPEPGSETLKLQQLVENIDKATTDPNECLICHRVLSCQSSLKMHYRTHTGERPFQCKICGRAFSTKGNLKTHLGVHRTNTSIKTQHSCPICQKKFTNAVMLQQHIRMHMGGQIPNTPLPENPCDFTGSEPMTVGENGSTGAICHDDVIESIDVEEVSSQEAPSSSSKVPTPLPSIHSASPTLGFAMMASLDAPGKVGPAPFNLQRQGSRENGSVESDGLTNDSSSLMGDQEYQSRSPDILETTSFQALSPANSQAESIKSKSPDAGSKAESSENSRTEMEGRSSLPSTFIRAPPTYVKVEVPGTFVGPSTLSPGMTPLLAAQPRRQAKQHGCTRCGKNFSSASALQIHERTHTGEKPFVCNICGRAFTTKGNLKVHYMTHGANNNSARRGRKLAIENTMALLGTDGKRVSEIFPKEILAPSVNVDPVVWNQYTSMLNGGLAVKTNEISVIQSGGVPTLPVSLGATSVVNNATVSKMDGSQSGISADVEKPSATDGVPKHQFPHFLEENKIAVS
Setting: 8-mer, flanks averaged, mean of replicates
Strand	E-score
ACTAGAAT	0.225
CCTGTGCA	-0.0885
CAACTAGC	-0.0716
TCATGGAA	0.244
GGAGGTCA	-0.199
CCTGATCG	-0.206
CTACTCAC	-0.0853
ATCGCCCA	-0.232
AGACAAAT	0.182
AATCAACG	0.0948
CTAGCCGA	-0.0857
AGGGCGAC	-0.292
ATGCTTAG	0.228
GGGTTGGA	-0.166
ATCAGATG	0.00272
CACATACG	0.0537
ATGAATAG	0.241
AGGCTTAT	0.128
CATAGTTA	0.33
CCTCTTAG	0.0371
ATAGGAAA	0.298
GCCGATCA	0.0133
GGACATGA	-0.0721
AGTTCTGG	-0.141
AGATTGCT	0.0795

For quick reference, copied from above (set 2):
Molecule	lacZ reporter activity
FLKKLEQSFMCVCCQELVYQPVTTECFHNVCKDCLQRSFKAQVFSCPACRHDLGQNYIMI (UHRF2 RING domain (UniProt Q96PU4))	0
B6 (TRIM38 RING domain)	0
B1 (PHF7 RING domain)	0
B5 (RNF43 RING domain)	0
B2 (RNF4 RING domain)	2110
B4 (MSL2 RING domain)	0
ISNDSETLEECMVCSDMKRDTLFGPCGHIATCSLCSPRVKKCLICKEQVQSRTKIE (MIB1 RING domain (UniProt Q86YT6))	0
B3 (TRIM35 RING domain)	0
